Results gathered from unrelated publications.
Each numbered part is a random draw from the data of one study; scales do not carry over between parts. Positions count from the first letter of the parent shown.

Set 1 — target: CCNE2, cyclin fold, Cln2 fusion (human); method: yeast growth competition, sequencing; medium: yeast; notes: strong parent motif; relative to: not given; direction: higher = stronger binding
Parent: BRCA2 docking peptide (human); PSIKRNLLNEFDR
Under “normalised enrichment score”, `R5N` is recorded as -0.0348.
`L8A`: “normalised enrichment score” 0.522.
Under “normalised enrichment score”, `N9W` is recorded as 2.18.
`I3T`: “normalised enrichment score” 0.431.
Under “normalised enrichment score”, `K4Q` is recorded as -0.325.
`R5P`: “normalised enrichment score” 0.247.
`F11N`: “normalised enrichment score” 0.0159.
For `I3E`, “normalised enrichment score” read 0.451.
For `N6K`, “normalised enrichment score” read 1.12.
Under “normalised enrichment score”, `K4T` is recorded as -0.54.
`P1A` — result for “normalised enrichment score”: 1.8.
`D12R`: “normalised enrichment score” 1.17.
Under “normalised enrichment score”, `I3K` is recorded as 1.05.
`L7G`: “normalised enrichment score” 0.0192.
Under “normalised enrichment score”, `E10R` is recorded as 0.73.
Under “normalised enrichment score”, `N6G` is recorded as -0.504.
`N6Q`: “normalised enrichment score” 0.147.
For `L8T`, “normalised enrichment score” read 0.962.
For `P1W`, “normalised enrichment score” read 1.91.
`N6H`: “normalised enrichment score” 0.935.
`R5D` — result for “normalised enrichment score”: 0.662.
`E10F`: “normalised enrichment score” 1.55.
Under “normalised enrichment score”, `L8R` is recorded as -0.648.
`R5H` — result for “normalised enrichment score”: -0.254.

Set 2 — method: protein binding microarray; form: double-stranded DNA, one strand shown; medium: in vitro; concentration: not given; relative to: not given; direction: higher = stronger binding
Target: Histone acetyltransferase KAT6A, both winged helices, GST fusion (KAT6A, Homo sapiens, UniProt Q92794, residues 1-181)
Notes: 8-mer, flanks averaged, mean of 2 arrays, mostly near background
Residues (chain): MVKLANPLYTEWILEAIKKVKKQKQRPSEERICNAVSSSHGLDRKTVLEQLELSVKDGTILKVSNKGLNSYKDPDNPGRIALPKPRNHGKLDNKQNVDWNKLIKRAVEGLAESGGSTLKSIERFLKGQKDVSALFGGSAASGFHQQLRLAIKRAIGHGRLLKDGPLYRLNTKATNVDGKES
For `CATGGTCC`, the E-score was -0.0821.
With `CCGACCGA` the E-score was 0.164.
`AGCGTGTG` gave an E-score of 0.0619.
`CATAGAGG` has an E-score of -0.0836.
The E-score of `ATGATATG` is reported as 0.0688.
With `GGCTAGAA` the E-score was 0.0244.
`GTTGTCGA` has an E-score of -0.132.
For `CATCTAGA`, the E-score was -0.0755.
For `ACATAGAC`, the E-score was -0.0926.
`CTGAAAAC` has an E-score of 0.0288.
The E-score of `GAACGTCA` is reported as 0.0163.
For `AGTTATAC`, the E-score was 0.00887.
`CCCGATAG` gave an E-score of 0.0588.
For `AACCTCGT`, the E-score was 0.0674.
`AAGAAAAG` has an E-score of -0.257.
`GCTTACAA` gave an E-score of -0.0581.
`GCTTAGAC` has an E-score of 0.0755.
For `AACAGTCC`, the E-score was -0.191.
The E-score of `GTTAGAGA` is reported as -0.137.
`CAGGAATG` has an E-score of -0.171.
For `CTTGTTCC`, the E-score was 0.0125.
For `AAGGATCC`, the E-score was -0.0898.
For `AATATGAG`, the E-score was -0.0494.
`AGGTTGCA` gave an E-score of -0.0451.
`GGATATCA` has an E-score of 0.109.

Set 3 — method: RNA Bind-n-Seq; form: RNA; medium: in vitro; concentration: not given; relative to: input RNA pool; direction: higher = stronger binding
Target: RING finger protein unkempt homolog, zinc fingers 1-6, GST-SBP tag (UNK, Homo sapiens, UniProt Q9C0B0, residues 30-357)
Notes: RNA with constant flanks, human and mouse sites, ends assumed
All sequences stand within: GGGAGUUCUACAGUCCGACGAUC … CAACAGAGGAUUGAGCAUCA
Residues (chain): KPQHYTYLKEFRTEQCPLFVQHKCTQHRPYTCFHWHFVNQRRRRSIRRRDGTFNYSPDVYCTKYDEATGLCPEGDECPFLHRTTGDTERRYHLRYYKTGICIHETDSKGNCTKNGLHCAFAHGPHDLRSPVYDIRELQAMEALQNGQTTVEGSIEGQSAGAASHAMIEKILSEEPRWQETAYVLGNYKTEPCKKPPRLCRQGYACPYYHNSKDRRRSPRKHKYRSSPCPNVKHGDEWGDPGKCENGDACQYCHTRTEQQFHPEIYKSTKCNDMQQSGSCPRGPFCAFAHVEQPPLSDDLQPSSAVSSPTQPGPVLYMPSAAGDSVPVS
`GAAGAUGCGGCAUCCUAUGUUAGAAAGGUUAUACCAAAAGAUUACAAGACAAUGGCCGCUUUAGCCAAAGCCAUUGAAAAGAAUGUGCUGUUUUCACAUCUUGAUGAUAAUGAGAGAAGU` gave a bound/input enrichment of 0.767 ratio.
The bound/input enrichment of `GACCCACUUGAGAGGACGCCUCCUGGAGAGCAAGUGCUAUCAAAUCACAGUAACUCCCGUAUUCGCCACGGGGCCCGGAGGCUCUGAGUCCUUGAAGGCGUACCUCAAACAAGCCGCUCC` is reported as 0.116 ratio.
For `GAAGCAGAAAAGAUUGAUGGAGCAGCUUCACAAGGAAAGUCUUCGUGCUCGGUGAUGUGACAAUUCUGCUGCAGAGCCUGCGGACACUGGGGAUAUAUUCCACCUGAGGAAGCAAACUGC`, the bound/input enrichment was 0.0974 ratio.
For `GUAAUGUGUCCAUUUAACUUAUUUUUAUAGCACUUAGGCAAUAUUGUUAGUCUUAGUGAGUAGUUCACAUCUUUACAAAAGCAUGCUCUCCCUAUCCAUUGGGCCCACAAUAACACUCUC`, the bound/input enrichment was 11.9 ratio.
`GAAGGCAGCAAAAGGCACAGGUCAAGAAGCAGGUCACGAUCUCGGACCAGAAGUUCCUCUAGGUCCCGUAGCCGAUCCCGUUCACGAAGGAGCAAGUCUUACAGCCGAUCAAGGAGCAGG` has a bound/input enrichment of 0.156 ratio.
The bound/input enrichment of `GGAGAAAAUAAACAAACCACGGUGUCCAACUCCCAGCAGGCUUACCAAGAAGCAUUUGAAAUCAGCAAGAAAGAAAUGCAGCCUACACACCCGAUUCGCCUCGGCCUGGCGCUGAAUUUC` is reported as 0.184 ratio.
`ACUCCUGUGUCAUAUGACCAGGGGGCAAAUAUGGCCAAGCAGAUCGGAGCAGCCACUUACAUAGAAUGCUCAGCUUUACAGUCAGAAAACAGCGUCAGAGACAUUUUUCACGUCGCCACC` has a bound/input enrichment of 0.169 ratio.
The bound/input enrichment of `CAUGAAGGAACACUGGAUGACUUUACAGUUUUAAACAGACGCAAAAAGGUAGCCAGCAAUGUAGCAUCAGCAGUGAAAAGGCCAUUUAAUUUCAUGGCAAAUUUUCCUUGUCCACCUUCA` is reported as 0.184 ratio.

Further values, each from its own experiment
With `PhoQ, residues 284 288 289 292 302 303 SNSSNI` the fold induction was 0.846 (PhoP, residues 12 14 15 18 19 TPLRH (Escherichia coli, UniProt P23836); Sort-seq, refers to: YFP reporter; E. coli; PhoQ-PhoP variant library, added: 10 µM Mg2+; relative to: high Mg2+ state, higher = stronger signaling).
